Measured values of several laboratories.
Compare with care: the assays were run in different laboratories.

| SMILES | assay | test system | conditions | how to read | adverse event incidence [%] |
| --- | --- | --- | --- | --- | --- |
| CC[C@H](C)CCCCC(=O)N[C@@H](CCN)C(=O)N[C@H](C(=O)N[C@@H](CCN)C(=O)N[C@H]1CCNC(=O)[C@H]([C@@H](C)O)NC(=O)[C@H](CCN)NC(=O)[C@H](CCN)NC(=O)[C@H](CC(C)C)NC(=O)[C@@H](Cc2ccccc2)NC(=O)[C@H](CCN)NC1=O)[C@@H](C)O | measured: oral hypoaesthesia | mild renal insufficiency patients | IV, 0.75 mg/kg |  | 85.7 |
| CC[C@H](C)[C@H](NC(=O)[C@H](Cc1ccccc1)NC(=O)[C@H](CCC(=O)O)NC(=O)[C@H](CCCCNC(=O)COCCOCCNC(=O)COCCOCCNC(=O)CC[C@H](NC(=O)CCCCCCCCCCCCCCCCC(=O)O)C(=O)O)NC(=O)[C@H](C)NC(=O)[C@H](C)NC(=O)[C@H](CCC(N)=O)NC(=O)CNC(=O)[C@H](CCC(=O)O)NC(=O)[C@H](CC(C)C)NC(=O)[C@H](Cc1ccc(O)cc1)NC(=O)[C@H](CO)NC(=O)[C@H](CO)NC(=O)[C@@H](NC(=O)[C@H](CC(=O)O)NC(=O)[C@H](CO)NC(=O)[C@@H](NC(=O)[C@H](Cc1ccccc1)NC(=O)[C@@H](NC(=O)CNC(=O)[C@H](CCC(=O)O)NC(=O)C(C)(C)NC(=O)[C@@H](N)Cc1cnc[nH]1)[C@@H](C)O)[C@@H](C)O)C(C)C)C(=O)N[C@@H](C)C(=O)N[C@@H](Cc1c[nH]c2ccccc12)C(=O)N[C@@H](CC(C)C)C(=O)N[C@H](C(=O)N[C@@H](CCCNC(=N)N)C(=O)NCC(=O)N[C@@H](CCCNC(=N)N)C(=O)NCC(=O)O)C(C)C | measured: Headache | type 2 diabetes patients | dose not given | baseline: subjects | 40 |
| O=C1CCc2ccc(OCCCCN3CCN(c4cccc(Cl)c4Cl)CC3)cc2N1 | measured: Hypertension | genotyped patients, CYP2D6 normal metabolizers | dose not given, long-acting oral or depot |  | 0.8 |
| NCCONC(=O)[C@@H]1CC[C@@H]2CN1C(=O)N2OS(=O)(=O)O | measured: increased vitamin C | healthy Chinese men | intravenous, 2 g, treatment-emergent |  | 12.5 |
| FC(F)(F)c1ccc(CNc2ccc(Cc3c[nH]c4ncc(Cl)cc34)cn2)cn1 | measured: Rash | patients with advanced solid tumours | oral, dose not given, all grades, possibly related to drug |  | 20 |
| Cc1ccc(Sc2ccccc2N2CCNCC2)c(C)c1 | any TEAE | healthy adult men | oral, 40 mg single dose, 10 days |  | 50 |
| Cc1c(Cl)c(C)[n+]([O-])c(Cl)c1-c1noc(-c2cc(O)c(O)c([N+](=O)[O-])c2)n1 | measured: Severe severity | healthy Chinese subjects | oral, 25 mg |  | 0 |
| CC(=O)O[C@H]1C(=O)[C@@]2(C)[C@H]([C@H](OC(=O)c3ccccc3)[C@]3(O)C[C@H](OC(=O)[C@H](O)[C@@H](NC(=O)c4ccccc4)c4ccccc4)C(C)=C1C3(C)C)[C@]1(OC(C)=O)CO[C@@H]1C[C@@H]2O | measured: alanine aminotransferase increased | patients with advanced solid tumours | intravenous, dose not given, grade 3 and 4, possibly related to drug |  | 2 |
| Cc1c(C(=O)O)ccc2c3n(nc12)[C@@H]1[C@H](C3)N(CC2CC2)[C@@]2(C(=O)Nc3cc(Cl)ccc32)[C@H]1c1cccc(Cl)c1F | phase Ia trial, measured: Neutropenia | cancer patients | oral, dose not given, all patients grade ≥3 |  | 24.1 |
| CC(C)n1c(Nc2cccnc2)nc2cnc(Nc3ccc(N4CCN(C)CC4)cc3)nc21 | measured: Hypercalcemia | healthy male subjects | oral, 150 mg, with: rifampin |  | 0 |

A few entries again:
| SMILES | assay | test system | conditions | how to read | adverse event incidence [%] |
| --- | --- | --- | --- | --- | --- |
| CC[C@H](C)CCCCC(=O)N[C@@H](CCN)C(=O)N[C@H](C(=O)N[C@@H](CCN)C(=O)N[C@H]1CCNC(=O)[C@H]([C@@H](C)O)NC(=O)[C@H](CCN)NC(=O)[C@H](CCN)NC(=O)[C@H](CC(C)C)NC(=O)[C@@H](Cc2ccccc2)NC(=O)[C@H](CCN)NC1=O)[C@@H](C)O | measured: oral hypoaesthesia | mild renal insufficiency patients | IV, 0.75 mg/kg |  | 85.7 |
